Measured values from different studies.
Lines come from different studies, so protocols differ.
Target: Tyrosine-protein kinase SYK (SYK, Homo sapiens, UniProt P43405)

NC(=O)C[C@H]1CCc2sc3ncnc(O[C@H]4CC[C@H](N5CCOCC5)CC4)c3c21 has an inhibition of 6% (enzyme activity, inhibitor; 10 µM).
The remaining binding of COc1c(Cl)cccc1Nc1c(-c2ccncc2C#C[C@@]2(C)CCCN2C(=O)/C=C/CN(C)C)[nH]c2c1C(=O)NCC2 is reported as 100% (cell-free assay, competition with immobilised ligand; 3 µM).
With c1ccc2c(Nc3cc(C4CCC4)[nH]n3)nc(Nc3ccc4nc[nH]c4c3)nc2c1 the remaining activity was 15% (enzyme activity, inhibitor; 0.25 µM).
CNC1C[S+]2CC[S+]3CC[S+](C1)[Ru-4]321([N]=C=S)[n]2c3ccc(OC)cc3c3c4c(c5cc(F)c[n+]1c5c32)C(=O)NC4=O (centres unmarked) gave a remaining binding of 94% (KinomeScan; 0.1 µM; baseline: untreated).
Cc1cccc(-c2ccc3nc(NC(=O)C4CCOCC4)nn3c2)c1 has a remaining activity of 95% (enzyme activity, Dundee kinase panel; 10 µM).
CN1CC[C@@H](COc2cnc(C#N)cc2-c2ccn3nc(NC(=O)C4CC4)cc3c2)C1 gave an inhibition of -5% (enzyme activity, inhibitor; 1 µM).
C=CC(=O)N1Cc2nc(-c3cc(-c4cc(Cl)cnc4Cl)c(F)cc3F)n(-c3ccncn3)c2C1 gave an inhibition of 10.7% (cell-free assay, inhibitor; 1 µM).
With Cc1cnc2nc1Nc1cccc(c1)COC/C=C/COCc1cc(ccc1OCCN1CCOCC1)N2 the remaining binding was 83% (concentration not given; baseline: DMSO control).
CCN1CCN(Cc2ccc(C(=O)Nc3ccc(C)c(NCc4cnc5[nH]ccc5c4OC)c3)cc2C(F)(F)F)CC1 gave a remaining binding of 14% (binding, competition with immobilised ligand; 1 µM).
With COc1ccc(NC(=O)Nc2ccc3c(c2)C(=O)N(C(C)CO)CC(C)C(CN(C)Cc2ccc4c(c2)OCO4)O3)cc1 (centres unmarked) the remaining activity was 108% (kinase activity, KinaseProfiler; 0.03 µM, species human; baseline: control).
With Cc1cccc(-c2ccc3nc(NC(=O)C4CCCO4)nn3c2)c1 (centres unmarked) the remaining activity was 94% (enzyme activity, Dundee kinase panel; 10 µM).
O=C(Cc1ccc(OCc2ccccc2)cc1)NC1(C(=O)O)CCN(C(=O)c2ccc(-c3cccc(Cl)c3)cc2)CC1 — result for “activity vs control”: 59% (enzyme activity, inhibitor; 10 µM).
COc1cc(Nc2nccc(-c3cnn4nc(OC)ccc34)n2)cc(C(F)(F)F)c1 gave a remaining binding of 89% (binding, competition with immobilised ligand; 1 µM).
For Cc1cccc(O[C@H]2CCC[C@@H](C(C)CNCc3ccncc3)C2)c1 (relative stereo), the inhibition was 2% (kinase activity, kinome panel screening; 1 µM).
COc1c(OCCCN2CCOCC2)ccc2c1N=C(NC(=O)c1cnc(N)nc1)N1CCN=C21 has a remaining activity of 95% (kinase activity, inhibitor; 1 µM; baseline: untreated control).
Nc1ncc2c(n1)-c1c([nH]c3ccc(C4=CCOCC4)cc13)CCC2 gave a remaining binding of 100% (binding, competition with immobilised ligand; 1 µM).
For O=C(Nc1ccc(Oc2ncnc3[nH]cc(-c4ccccc4)c23)c(F)c1)c1c2n(n(-c3cc(F)ccc3F)c1=O)CCCC2, the inhibition was 27% (enzyme activity, inhibitor; 0.5 µM).
With COc1ccc(O)cc1-c1c[nH]c2ncc(-c3cncc(C(=O)N(C)C)c3)cc12 the inhibition was 2.65% (binding, competition with immobilised ligand; 0.2 µM).
For C=CC(=O)Nc1cccc(-c2cnc3[nH]cc(C(=O)NC(C)(C)C)c3n2)c1, the inhibition was 78% (enzyme activity, inhibitor; 0.1 µM).
With CCn1cc(C(=O)O)c(=O)c2c(N)c(F)c(NC3CCCCC3)cc21 the inhibition was 14.3% (kinase activity; 0.1 µM, added: ATP at Km).

Repeated from above:
CCN1CCN(Cc2ccc(C(=O)Nc3ccc(C)c(NCc4cnc5[nH]ccc5c4OC)c3)cc2C(F)(F)F)CC1 gave a remaining binding of 14% (binding, competition with immobilised ligand; 1 µM).
